Experimental data from different studies.
Every numbered part comes from another study and shows a few of its results, in no order.
UniProt P42680, sequence (whole entry, looked up): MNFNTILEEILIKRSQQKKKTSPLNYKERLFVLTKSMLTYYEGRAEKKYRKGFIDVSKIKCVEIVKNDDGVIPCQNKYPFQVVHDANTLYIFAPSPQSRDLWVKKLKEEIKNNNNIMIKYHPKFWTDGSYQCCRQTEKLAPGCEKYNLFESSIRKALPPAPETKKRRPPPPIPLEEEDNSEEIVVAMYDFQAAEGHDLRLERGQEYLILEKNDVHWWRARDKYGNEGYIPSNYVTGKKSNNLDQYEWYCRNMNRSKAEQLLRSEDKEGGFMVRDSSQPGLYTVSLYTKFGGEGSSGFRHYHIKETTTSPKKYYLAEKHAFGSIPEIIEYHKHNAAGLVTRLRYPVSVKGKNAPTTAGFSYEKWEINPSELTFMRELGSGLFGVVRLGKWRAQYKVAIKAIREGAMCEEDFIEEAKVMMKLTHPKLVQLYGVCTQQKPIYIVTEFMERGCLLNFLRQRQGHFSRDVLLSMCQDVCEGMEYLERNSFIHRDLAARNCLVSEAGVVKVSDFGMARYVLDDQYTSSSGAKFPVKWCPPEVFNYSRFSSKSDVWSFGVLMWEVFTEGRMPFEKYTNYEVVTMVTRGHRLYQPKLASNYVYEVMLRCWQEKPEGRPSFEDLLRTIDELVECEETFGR
UniProt Q02763, sequence (whole entry, looked up): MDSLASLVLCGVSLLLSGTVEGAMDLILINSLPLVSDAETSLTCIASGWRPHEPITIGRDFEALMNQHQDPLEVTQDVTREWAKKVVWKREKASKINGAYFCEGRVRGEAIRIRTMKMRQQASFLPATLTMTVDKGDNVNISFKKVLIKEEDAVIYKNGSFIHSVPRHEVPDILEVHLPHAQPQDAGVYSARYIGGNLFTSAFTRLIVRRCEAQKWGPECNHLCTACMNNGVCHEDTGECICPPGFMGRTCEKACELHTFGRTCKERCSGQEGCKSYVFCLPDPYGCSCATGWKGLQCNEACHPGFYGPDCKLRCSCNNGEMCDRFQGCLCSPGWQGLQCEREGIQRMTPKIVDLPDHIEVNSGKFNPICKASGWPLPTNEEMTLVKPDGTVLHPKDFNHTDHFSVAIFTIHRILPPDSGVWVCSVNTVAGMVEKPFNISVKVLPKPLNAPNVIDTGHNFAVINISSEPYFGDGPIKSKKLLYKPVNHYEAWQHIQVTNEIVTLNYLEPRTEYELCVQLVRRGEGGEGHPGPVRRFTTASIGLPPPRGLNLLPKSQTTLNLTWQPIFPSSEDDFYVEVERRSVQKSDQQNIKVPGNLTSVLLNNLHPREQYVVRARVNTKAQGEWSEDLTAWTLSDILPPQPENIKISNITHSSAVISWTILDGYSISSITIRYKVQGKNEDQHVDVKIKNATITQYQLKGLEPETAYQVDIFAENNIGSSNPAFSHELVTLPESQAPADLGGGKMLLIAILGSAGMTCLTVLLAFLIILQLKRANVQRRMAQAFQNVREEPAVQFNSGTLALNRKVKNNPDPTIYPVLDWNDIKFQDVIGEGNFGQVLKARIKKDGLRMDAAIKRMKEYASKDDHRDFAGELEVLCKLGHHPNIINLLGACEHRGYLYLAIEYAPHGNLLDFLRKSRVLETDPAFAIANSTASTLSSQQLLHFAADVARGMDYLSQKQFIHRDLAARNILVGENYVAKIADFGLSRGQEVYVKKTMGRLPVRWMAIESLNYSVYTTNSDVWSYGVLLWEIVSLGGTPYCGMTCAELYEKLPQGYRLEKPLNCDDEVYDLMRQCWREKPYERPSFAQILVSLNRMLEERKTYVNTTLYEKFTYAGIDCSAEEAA
UniProt P54764, sequence (whole entry, looked up): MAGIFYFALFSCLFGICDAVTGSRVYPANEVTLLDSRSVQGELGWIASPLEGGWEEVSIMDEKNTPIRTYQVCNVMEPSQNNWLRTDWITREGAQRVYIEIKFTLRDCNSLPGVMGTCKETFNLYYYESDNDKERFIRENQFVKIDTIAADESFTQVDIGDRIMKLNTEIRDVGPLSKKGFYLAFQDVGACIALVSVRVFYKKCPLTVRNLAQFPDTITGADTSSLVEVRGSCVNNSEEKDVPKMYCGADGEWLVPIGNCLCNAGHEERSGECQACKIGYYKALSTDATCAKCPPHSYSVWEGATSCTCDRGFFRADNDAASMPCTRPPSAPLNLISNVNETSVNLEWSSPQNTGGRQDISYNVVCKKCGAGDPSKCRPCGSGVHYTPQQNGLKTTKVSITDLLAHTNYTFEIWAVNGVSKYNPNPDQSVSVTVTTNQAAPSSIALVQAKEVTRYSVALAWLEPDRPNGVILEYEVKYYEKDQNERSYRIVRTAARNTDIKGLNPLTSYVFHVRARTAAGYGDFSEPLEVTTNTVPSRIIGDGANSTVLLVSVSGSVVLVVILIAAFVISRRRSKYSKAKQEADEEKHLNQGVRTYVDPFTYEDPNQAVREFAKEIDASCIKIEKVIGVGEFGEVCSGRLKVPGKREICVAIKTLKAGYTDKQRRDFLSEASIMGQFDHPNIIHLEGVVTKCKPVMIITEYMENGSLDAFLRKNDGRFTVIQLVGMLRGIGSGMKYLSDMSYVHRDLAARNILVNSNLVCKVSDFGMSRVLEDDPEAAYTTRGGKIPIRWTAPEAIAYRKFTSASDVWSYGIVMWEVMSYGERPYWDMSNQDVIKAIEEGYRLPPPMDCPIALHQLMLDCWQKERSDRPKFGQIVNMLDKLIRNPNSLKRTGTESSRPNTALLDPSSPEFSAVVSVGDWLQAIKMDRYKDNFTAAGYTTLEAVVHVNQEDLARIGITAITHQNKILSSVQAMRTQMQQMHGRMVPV
UniProt Q8N752, sequence (whole entry, looked up): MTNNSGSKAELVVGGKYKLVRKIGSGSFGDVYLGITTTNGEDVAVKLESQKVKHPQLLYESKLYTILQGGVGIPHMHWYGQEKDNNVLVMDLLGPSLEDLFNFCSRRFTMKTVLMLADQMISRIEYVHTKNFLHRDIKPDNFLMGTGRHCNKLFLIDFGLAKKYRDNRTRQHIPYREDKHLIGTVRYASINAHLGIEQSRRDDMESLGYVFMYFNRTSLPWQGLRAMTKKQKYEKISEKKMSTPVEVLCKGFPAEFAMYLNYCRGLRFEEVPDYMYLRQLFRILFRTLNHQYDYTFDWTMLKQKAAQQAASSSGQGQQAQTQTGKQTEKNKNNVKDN
UniProt Q9Y243, sequence (whole entry, looked up): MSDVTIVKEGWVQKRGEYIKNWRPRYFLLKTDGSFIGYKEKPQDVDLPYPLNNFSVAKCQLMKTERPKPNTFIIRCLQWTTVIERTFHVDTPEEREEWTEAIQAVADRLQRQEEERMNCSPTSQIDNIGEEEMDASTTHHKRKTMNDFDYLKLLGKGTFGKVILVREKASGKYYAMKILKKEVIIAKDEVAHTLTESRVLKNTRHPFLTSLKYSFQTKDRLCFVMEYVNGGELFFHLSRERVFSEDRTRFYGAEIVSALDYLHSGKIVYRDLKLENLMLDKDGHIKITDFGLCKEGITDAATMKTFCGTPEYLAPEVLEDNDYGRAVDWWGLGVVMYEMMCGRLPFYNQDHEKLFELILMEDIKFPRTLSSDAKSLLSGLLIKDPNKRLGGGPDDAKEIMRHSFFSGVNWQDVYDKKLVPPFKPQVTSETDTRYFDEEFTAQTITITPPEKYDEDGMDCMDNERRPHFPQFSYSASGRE

Sample 1
SMILES: Cc1sc(C(=O)NC2COC2)cc1-n1cc(NC(=O)Nc2c(F)cccc2Cl)cn1
Read-out: enzyme activity
Concentration: 10 µM
target | assay | how to read | remaining activity [%]
Myosin-IIIb (MYO3B, Homo sapiens, UniProt Q8WXR4) | – | reference: untreated control | 78.7
Cyclin-dependent kinase 2, with cyclin E (CDK2, Homo sapiens, UniProt P24941) | – | reference: untreated control | 103
Serine/threonine-protein kinase pim-3 (PIM3, Homo sapiens, UniProt Q86V86) | – | reference: untreated control | 127
Bone morphogenetic protein receptor type-1A (BMPR1A, Homo sapiens, UniProt P36894) | – | reference: untreated control | 84.9
Ephrin type-A receptor 2 (EPHA2, Homo sapiens, UniProt P29317) | – | reference: untreated control | 100
RAC-gamma serine/threonine-protein kinase (AKT3, Homo sapiens, UniProt Q9Y243) | – | reference: untreated control | 94.2
Cyclin-dependent kinase 17, with cyclin Y (CDK17, Homo sapiens, UniProt Q00537) | – | reference: untreated control | 102
Tau-tubulin kinase 2 (TTBK2, Homo sapiens, UniProt Q6IQ55) | inhibitor | – | 97.6
Protein kinase C gamma type (PRKCG, Homo sapiens, UniProt P05129) | – | reference: untreated control | 101
Angiopoietin-1 receptor (TEK, Homo sapiens, UniProt Q02763) | – | reference: untreated control | 85.9
Activin receptor type-1-like (ACVRL1, Homo sapiens, UniProt P37023) | – | reference: untreated control | 78.6
Serine/threonine-protein kinase tousled-like 2 (TLK2, Homo sapiens, UniProt Q86UE8) | – | reference: untreated control | 94.1
Serine/threonine-protein kinase N2 (PKN2, Homo sapiens, UniProt Q16513) | – | reference: untreated control | 86.5
Tyrosine-protein kinase Tec (TEC, Homo sapiens, UniProt P42680) | – | reference: untreated control | 90.9
Serine/threonine-protein kinase NLK (NLK, Homo sapiens, UniProt Q9UBE8) | – | reference: untreated control | 83.9
Ephrin type-A receptor 4 (EPHA4, Homo sapiens, UniProt P54764) | – | reference: untreated control | 113
Dual specificity tyrosine-phosphorylation-regulated kinase 3 (DYRK3, Homo sapiens, UniProt O43781) | – | reference: untreated control | 99.2
Casein kinase I isoform alpha-like (CSNK1A1L, Homo sapiens, UniProt Q8N752) | – | reference: untreated control | 105
Death-associated protein kinase 1 (DAPK1, Homo sapiens, UniProt P53355) | – | reference: untreated control | 102

Sample 2
Target: Tyrosine-protein kinase ZAP-70 (ZAP70, Homo sapiens, UniProt P43403)
Read-out: enzyme activity
Action: inhibitor
Concentration: 0.5 µM
Reference: control
Target sequence (P43403 1-619): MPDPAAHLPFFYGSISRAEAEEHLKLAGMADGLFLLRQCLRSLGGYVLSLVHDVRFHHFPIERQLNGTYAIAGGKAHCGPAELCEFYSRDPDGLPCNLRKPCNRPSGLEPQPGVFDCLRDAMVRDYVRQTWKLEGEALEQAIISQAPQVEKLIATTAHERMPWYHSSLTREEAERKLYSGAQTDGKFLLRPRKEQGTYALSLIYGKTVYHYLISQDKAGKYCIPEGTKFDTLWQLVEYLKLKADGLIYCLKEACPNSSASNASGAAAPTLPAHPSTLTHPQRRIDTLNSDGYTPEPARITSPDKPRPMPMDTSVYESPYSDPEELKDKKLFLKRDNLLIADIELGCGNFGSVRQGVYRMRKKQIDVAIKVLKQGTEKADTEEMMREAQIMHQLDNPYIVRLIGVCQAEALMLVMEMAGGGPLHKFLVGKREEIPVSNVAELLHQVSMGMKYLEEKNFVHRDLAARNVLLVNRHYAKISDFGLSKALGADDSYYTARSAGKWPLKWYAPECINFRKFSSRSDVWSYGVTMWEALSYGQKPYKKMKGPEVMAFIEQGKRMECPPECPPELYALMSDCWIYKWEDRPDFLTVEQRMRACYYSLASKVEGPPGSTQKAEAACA
SMILES | remaining activity [%]
Cc1cncc2cccc(S(=O)(=O)N3CCCN(C(=O)CN)C[C@@H]3C)c12 | 102
CSc1nc(-c2ccnc(N[C@@H](C)c3ccccc3)c2)c(-c2ccc(F)cc2)[nH]1 (racemic) | 102
Nc1nccc(-c2c(-c3ccc(F)cc3)ncn2C2CCNCC2)n1 | 92.3
O=S(=O)(NCCNC/C=C/c1ccc(Br)cc1)c1cccc2cnccc12 | 97.9
COc1ccc(S(=O)(=O)N(CCO)c2ccccc2CN(C)CC=Cc2ccc(Cl)cc2)cc1 | 84.7
N#CC(=C(N)Sc1ccc(N)cc1)c1ccccc1C(F)(F)F | 102
CCCC(=O)Oc1ccc2[nH]c(C(=O)c3cc4ccccc4[nH]3)cc2c1 | 100
Fc1ccc(-c2nc3n(c2-c2ccncc2)CCS3)cc1 | 107
Oc1ccc(Nc2nc(-c3ccc(Cl)cc3)cs2)cc1 | 94.7
CC(=O)c1ccc(N2CCOCC2)cc1O | 99.5
NC(=O)c1ccc(N(C(N)=O)c2c(F)cccc2F)nc1-c1ccc(F)cc1F | 100
CCc1[nH]c(-c2ccc(OC)cc2)nc1-c1ccncc1 | 101
CC(C)(C)n1nc(Cc2cccc3ccccc23)c2c(N)ncnc21 | 84.6
Nc1ncnc2c1cnn2-c1ccccc1 | 91.5
COc1cc(Nc2c(C#N)cnc3cc(OCCCN4CCN(C)CC4)c(OC)cc23)c(Cl)cc1Cl | 101
CC[n+]1c(/C=C/N(C)c2ccccc2)n(-c2ccccc2)c2ccc(-c3nc4ccccc4s3)cc21 | 95.5
CC#CC(=O)Nc1cc2c(Nc3ccc(F)c(Cl)c3)ncnc2cn1 | 90.4
O=C1Cc2c([nH]c3ccc([N+](=O)[O-])cc23)-c2ccccc2N1 | 91.4
Cc1cc(Nc2nc(-c3ccccc3)nc3ccccc23)n[nH]1 | 105
Cc1ccc(NC2=CC(=O)c3sc(C)nc3C2=O)cc1 | 95.4

Sample 3
Target: Beta-1 adrenergic receptor (ADRB1, Homo sapiens, UniProt P08588)
UniProt P08588, sequence (whole entry, looked up): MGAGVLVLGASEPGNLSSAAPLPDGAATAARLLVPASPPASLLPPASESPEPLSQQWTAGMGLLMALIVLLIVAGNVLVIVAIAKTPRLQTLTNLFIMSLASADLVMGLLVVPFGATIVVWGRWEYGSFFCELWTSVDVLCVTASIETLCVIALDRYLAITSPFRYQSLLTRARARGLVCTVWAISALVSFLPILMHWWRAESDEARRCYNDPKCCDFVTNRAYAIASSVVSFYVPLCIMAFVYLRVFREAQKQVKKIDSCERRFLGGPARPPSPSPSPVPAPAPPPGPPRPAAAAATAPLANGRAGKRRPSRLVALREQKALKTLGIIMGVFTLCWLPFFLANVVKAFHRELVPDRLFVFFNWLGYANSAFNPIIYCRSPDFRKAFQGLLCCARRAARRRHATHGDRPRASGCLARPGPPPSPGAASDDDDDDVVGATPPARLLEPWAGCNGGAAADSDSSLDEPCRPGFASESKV
Read-out: binding
Technique: radioligand binding
Concentration: 10 µM
SMILES | inhibition [%]
CC(=O)Nc1nc(CN2CCC[C@H](Cc3cc(C)nc(C)c3)C2)cs1 | 4.41
Cc1nc(N2CC[C@@H](O)C2)ncc1-c1cc(C(F)(F)F)cc2[nH]ncc12 | -14.5
CC(=O)c1c(NS(C)(=O)=O)c2cc(-c3ccc(Cl)cc3)c(-c3ccc(Cl)cc3Cl)nc2n(C)c1=O | 25.6
Cc1c[nH]c2nccc(Oc3c(F)cc(Nc4cc(Cl)nc(N)n4)cc3F)c12 | 6.86
C[C@@H]1CN(c2cc(-c3nn(C)c4ccc(OC5(C)CC5)cc34)ncn2)C[C@H](C)O1 | 5.75
Nc1c(C(=O)NCc2ccc(C(=O)NCCCC3CCCCC3)cc2)cnn1-c1ccccc1 | 25.3
O=C1c2ccc(Nc3ccc(F)cc3F)cc2CCc2ccc(OC[C@H](O)CO)cc21 | 30.4
Cc1nc(C2CCN(C(=O)c3ccc(OC(F)(F)F)cc3N)CC2)c2ncc(N3CCN(C)CC3)cc2n1 | 17.9
CC(C)(O)c1cncc(-c2nc3ccc(F)cc3n2C2CC2)c1 | 59.4
CC1=C(C#N)C(c2ccc3c(c2)c(NC(=O)c2ccccc2C)nn3C)C(C#N)=C(C)N1 | -7.79
COc1cc(-c2cn(C3CCc4ccccc4N(CC(F)(F)F)C3=O)nn2)ccc1-n1ccc(C)n1 (centres unmarked) | 3.7
O=C(Nc1ccc(-n2nc(-c3cccnc3)cc2C(F)(F)F)cn1)c1ccc(-c2ccccc2)c(F)c1 | 0.23
O=C(NC[C@@H]1[C@H]2CN(C(=O)OCc3cc(C(F)(F)F)cc(C(F)(F)F)c3)C[C@@H]12)c1ccc2[nH]nnc2c1 | 13.3
CN([C@@H]1CCc2c(CC(=O)O)c3cc(S(C)(=O)=O)ccc3n2C1)S(=O)(=O)c1ccc(F)cc1 | -6.18
CN(C)C(=O)Cn1cc(-c2nc([C@@](C)(c3ccc(-c4cnc(N)nc4)cc3)C3CC3)no2)cn1 | -12.8
Cc1c(NC(=O)c2cc(C(N)=O)nc3cc(F)ccc23)c(C(F)(F)F)nn1Cc1ccc(C(C)(C)C)cc1 | 21.2
CN1C(=O)[C@@H](N2CCc3cn(Cc4ccccc4)nc3C2=O)COc2ccccc21 | 5.21
CC(C)CC(=O)N1CCc2nc(-c3ccc(Br)cc3)nc(N(C)Cc3ccccc3)c2C1 | 29.5
O[C@]1(C(F)(F)F)CCCC[C@H]1Nc1ccc(F)cc1 | 20.2
Cc1c(N2CCCC2)nc2ccc(Br)cc2c1C(=O)NC[C@H](CCC(=O)O)c1ccccc1Cl | 15.7
Cc1nccc(COC(=O)N2C[C@@H]3[C@@H](CNC(=O)c4ccc5[nH]nnc5c4)[C@@H]3C2)n1 | 12.4
C[C@@]1(Cc2ccc(C#N)cc2)C(=O)N(c2cc(Cl)cc(Cl)c2)c2ncc(C(=O)NC3(c4nc(C5CCC5)no4)CC3)n21 | 29.7

Sample 4
Target: Calcium/calmodulin-dependent protein kinase type II subunit alpha (CAMK2A, Homo sapiens, UniProt Q9UQM7)
UniProt Q9UQM7, sequence (whole entry, looked up): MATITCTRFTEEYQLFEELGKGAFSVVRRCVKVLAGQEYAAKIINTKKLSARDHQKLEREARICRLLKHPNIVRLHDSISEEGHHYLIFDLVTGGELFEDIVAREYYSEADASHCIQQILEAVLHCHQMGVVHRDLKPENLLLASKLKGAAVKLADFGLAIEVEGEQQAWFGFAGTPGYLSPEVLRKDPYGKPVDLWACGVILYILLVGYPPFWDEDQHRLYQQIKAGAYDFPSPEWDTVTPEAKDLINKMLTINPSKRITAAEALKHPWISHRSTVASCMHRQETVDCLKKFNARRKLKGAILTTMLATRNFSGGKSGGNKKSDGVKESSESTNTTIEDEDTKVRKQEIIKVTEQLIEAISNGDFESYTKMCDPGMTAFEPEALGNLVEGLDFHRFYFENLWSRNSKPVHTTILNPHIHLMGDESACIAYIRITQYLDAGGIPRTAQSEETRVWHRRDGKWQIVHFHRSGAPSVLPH
Read-out: enzyme activity
Action: inhibitor
Concentration: 10 µM
SMILES | inhibition
CC(C)OC(=O)CCC/C=C\C[C@@H]1[C@@H](CC[C@@H](O)CCc2ccccc2)[C@H](O)C[C@@H]1O | 7%
CC(=O)NCCCCN | -22%
Cc1ccccc1N1CCN(CCc2nnc3n2CCCC3)CC1 | -11%
C[C@@]12C[C@H](c3ccoc3)O[C@@]13C[C@H](OC3=O)[C@H]1[C@H]2C[C@@H]2C[C@H]1C(=O)O2 | -18%
COc1ccc(/C=C/C(=O)CC(=O)/C=C/c2ccc(OC)c(OC)c2)cc1 | -6%
C=CCc1ccc(O)c(-c2ccc(OC)c(CC=C)c2)c1 | -22%
C[C@H](CC[C@@H](O[C@@H]1O[C@H](CO[C@@H]2O[C@H](CO)[C@@H](O)[C@H](O)[C@H]2O)[C@@H](O)[C@H](O)[C@H]1O[C@@H]1O[C@H](CO)[C@@H](O)[C@H](O)[C@H]1O)C(C)(C)O)[C@H]1CC[C@@]2(C)[C@@H]3CC=C4[C@@H](CC[C@H](O[C@@H]5O[C@H](CO)[C@@H](O[C@@H]6O[C@H](CO)[C@@H](O)[C@H](O)[C@H]6O)[C@H](O)[C@H]5O)C4(C)C)[C@]3(C)[C@H](O)C[C@]12C | 15%
CN(C)c1cc(CNCC(C)(C)C)c(O)c2c1C[C@H]1C[C@H]3[C@H](N(C)C)C(O)=C(C(N)=O)C(=O)[C@@]3(O)C(O)=C1C2=O | -7%
O=C(/C=C/c1ccc(O)c2c1[C@H](C(=O)O)[C@@H](c1ccc(O)c(O)c1)O2)O[C@H](Cc1ccc(O)c(O)c1)C(=O)O | 1%
N[C@@H](CCS)C(=O)O | -1%
Cc1cc2ncc(C(=O)NCC(C)(C)NCC(=O)N3CCC[C@H]3C#N)cn2n1 | -6%
COc1ccc(CCO[C@@H]2O[C@H](CO[C@@H]3O[C@H](CO)[C@H](O)[C@H](O)[C@H]3O)[C@@H](OC(=O)/C=C/c3ccc(O)c(OC)c3)[C@H](O[C@@H]3O[C@@H](C)[C@H](O)[C@@H](O)[C@H]3O)[C@H]2O)cc1O | -6%
CCCCC(CC)CCC(CC(C)C)OS(=O)(=O)O (centres unmarked) | 11%
NC(=O)N/N=C/c1ccc([N+](=O)[O-])o1 | 8%
CC(=O)O[C@]12CCC(C(=O)O)=CC[C@]13CC[C@H]2[C@@](C)(/C=C/C=C(\C)C(=O)O)OC3=O | -36%
O=C1O[C@@H]([C@H](O)CO)[C@@H](O)[C@H]1O | 10%
